{"data": "Measurements of several laboratories", "note": "A part holds a random share of what one study measured. “And” joins repeats or separate records; there may be more than shown.", "UniProt P68400, sequence (whole entry, looked up)": "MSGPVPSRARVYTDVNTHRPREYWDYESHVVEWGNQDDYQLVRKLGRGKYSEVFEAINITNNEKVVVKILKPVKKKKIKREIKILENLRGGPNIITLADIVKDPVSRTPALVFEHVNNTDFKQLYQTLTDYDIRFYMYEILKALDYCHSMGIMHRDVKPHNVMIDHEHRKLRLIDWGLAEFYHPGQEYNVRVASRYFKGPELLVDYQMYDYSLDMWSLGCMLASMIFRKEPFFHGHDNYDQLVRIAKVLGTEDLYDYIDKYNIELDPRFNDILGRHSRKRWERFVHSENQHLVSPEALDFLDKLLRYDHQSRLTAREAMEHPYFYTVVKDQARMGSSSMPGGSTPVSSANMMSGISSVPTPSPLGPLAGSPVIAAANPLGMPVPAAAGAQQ", "UniProt P11802, sequence (whole entry, looked up)": "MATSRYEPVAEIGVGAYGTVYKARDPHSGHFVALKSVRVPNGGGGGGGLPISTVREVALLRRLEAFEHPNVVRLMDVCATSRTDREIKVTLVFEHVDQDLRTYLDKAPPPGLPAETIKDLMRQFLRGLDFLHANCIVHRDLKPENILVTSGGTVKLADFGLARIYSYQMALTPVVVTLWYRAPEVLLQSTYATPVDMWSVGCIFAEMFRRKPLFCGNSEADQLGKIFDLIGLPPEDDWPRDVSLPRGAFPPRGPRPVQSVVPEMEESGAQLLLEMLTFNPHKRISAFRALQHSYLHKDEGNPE", "UniProt Q13873, sequence (whole entry, looked up)": "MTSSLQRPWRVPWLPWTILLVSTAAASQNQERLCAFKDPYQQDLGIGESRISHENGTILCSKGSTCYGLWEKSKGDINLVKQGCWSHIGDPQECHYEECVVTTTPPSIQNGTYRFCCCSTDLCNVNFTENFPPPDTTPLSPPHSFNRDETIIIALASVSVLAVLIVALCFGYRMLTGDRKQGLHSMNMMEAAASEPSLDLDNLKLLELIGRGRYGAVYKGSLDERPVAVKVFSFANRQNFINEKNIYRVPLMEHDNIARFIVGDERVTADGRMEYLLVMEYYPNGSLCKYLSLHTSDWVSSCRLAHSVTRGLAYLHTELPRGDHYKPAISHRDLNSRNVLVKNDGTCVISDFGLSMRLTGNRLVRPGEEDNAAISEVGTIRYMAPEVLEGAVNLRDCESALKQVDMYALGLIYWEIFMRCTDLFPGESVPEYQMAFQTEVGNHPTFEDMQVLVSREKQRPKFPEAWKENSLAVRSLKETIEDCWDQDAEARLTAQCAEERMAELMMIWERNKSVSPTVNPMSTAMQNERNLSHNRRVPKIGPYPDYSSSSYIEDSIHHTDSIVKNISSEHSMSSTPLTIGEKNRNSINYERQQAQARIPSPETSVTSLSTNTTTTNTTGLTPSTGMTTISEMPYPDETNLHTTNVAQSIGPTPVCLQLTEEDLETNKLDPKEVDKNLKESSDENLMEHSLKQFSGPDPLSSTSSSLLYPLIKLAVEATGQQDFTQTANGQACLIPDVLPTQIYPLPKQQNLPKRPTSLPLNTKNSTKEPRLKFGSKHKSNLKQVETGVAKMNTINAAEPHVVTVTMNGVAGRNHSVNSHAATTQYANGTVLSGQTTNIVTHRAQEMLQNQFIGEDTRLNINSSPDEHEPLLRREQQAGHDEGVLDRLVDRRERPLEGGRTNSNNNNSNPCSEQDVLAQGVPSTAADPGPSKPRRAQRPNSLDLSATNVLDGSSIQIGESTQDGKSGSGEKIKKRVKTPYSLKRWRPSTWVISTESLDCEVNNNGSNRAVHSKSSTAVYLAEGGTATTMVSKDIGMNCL", "UniProt Q9NY57, sequence (whole entry, looked up)": "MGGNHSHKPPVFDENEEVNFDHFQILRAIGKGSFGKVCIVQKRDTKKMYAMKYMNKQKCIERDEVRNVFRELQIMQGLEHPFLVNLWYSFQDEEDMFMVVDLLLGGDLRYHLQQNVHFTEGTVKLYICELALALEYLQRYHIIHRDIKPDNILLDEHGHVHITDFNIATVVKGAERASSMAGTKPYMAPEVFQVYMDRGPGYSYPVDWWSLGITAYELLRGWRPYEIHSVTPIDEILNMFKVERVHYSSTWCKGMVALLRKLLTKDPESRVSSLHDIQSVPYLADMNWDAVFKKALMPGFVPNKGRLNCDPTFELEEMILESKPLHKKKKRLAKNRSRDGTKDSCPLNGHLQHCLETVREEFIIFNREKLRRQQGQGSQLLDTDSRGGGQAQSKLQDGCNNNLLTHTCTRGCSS", "UniProt P51955, sequence (whole entry, looked up)": "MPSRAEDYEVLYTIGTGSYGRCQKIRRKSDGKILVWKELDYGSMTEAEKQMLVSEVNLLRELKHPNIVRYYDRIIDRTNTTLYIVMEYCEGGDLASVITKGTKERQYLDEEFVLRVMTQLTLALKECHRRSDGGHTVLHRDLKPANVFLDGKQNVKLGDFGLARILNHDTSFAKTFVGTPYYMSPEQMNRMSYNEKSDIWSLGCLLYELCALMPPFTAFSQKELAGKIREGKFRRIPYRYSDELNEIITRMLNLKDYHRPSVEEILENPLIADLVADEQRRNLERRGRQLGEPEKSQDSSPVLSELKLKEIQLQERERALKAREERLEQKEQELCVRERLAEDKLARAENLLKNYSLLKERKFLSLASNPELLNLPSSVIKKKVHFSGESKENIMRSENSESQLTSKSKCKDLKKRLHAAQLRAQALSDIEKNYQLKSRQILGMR", "UniProt O00238, sequence (whole entry, looked up)": "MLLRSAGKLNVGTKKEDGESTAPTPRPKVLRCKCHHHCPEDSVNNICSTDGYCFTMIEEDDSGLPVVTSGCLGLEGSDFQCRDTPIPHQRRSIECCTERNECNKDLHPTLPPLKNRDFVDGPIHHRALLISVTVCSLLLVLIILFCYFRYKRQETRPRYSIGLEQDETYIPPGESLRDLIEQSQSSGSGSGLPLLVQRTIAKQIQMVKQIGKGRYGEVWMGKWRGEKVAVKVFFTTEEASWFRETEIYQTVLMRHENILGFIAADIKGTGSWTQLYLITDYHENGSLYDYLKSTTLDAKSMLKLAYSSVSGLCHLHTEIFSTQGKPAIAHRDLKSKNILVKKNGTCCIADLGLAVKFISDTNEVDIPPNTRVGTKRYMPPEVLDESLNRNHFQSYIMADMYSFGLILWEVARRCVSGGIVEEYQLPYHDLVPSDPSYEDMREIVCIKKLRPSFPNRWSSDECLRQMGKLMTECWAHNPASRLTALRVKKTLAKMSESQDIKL", "UniProt P45983, sequence (whole entry, looked up)": "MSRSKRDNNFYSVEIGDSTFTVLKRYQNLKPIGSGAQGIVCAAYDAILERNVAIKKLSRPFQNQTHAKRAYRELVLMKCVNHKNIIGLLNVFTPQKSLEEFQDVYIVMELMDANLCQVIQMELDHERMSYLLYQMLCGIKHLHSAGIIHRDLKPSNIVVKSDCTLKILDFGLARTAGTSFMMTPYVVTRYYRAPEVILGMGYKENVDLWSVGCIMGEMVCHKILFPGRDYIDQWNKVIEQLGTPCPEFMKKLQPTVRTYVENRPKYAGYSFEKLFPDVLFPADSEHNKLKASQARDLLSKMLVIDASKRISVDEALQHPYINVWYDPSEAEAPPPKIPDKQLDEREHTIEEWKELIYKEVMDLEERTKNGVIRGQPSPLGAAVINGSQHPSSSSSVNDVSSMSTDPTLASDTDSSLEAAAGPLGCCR", "UniProt Q8TBX8, sequence (whole entry, looked up)": "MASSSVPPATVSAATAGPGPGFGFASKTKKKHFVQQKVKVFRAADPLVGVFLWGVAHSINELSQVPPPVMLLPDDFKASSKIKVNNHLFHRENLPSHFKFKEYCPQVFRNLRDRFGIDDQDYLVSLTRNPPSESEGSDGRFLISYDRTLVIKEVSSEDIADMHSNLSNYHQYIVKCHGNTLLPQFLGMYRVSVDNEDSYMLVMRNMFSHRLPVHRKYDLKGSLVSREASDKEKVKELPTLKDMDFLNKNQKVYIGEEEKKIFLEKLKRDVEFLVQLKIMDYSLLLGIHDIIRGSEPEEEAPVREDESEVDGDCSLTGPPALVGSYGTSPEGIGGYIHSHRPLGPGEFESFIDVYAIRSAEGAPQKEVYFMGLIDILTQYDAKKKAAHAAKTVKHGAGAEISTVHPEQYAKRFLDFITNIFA"}
{"data": "Set 1", "SMILES": "O=C1CCc2cc(Nc3cc(OC4CCOCC4)c([N+](=O)[O-])cc3Cl)ccc2N1", "concentration": "1 µM"}
{"target": "NEK2 (Homo sapiens, UniProt P51955)", "effect on": "cell-free assay", "technique": "competition with immobilised ligand", "remaining binding": "95%"}
{"target": "TGFBR1 (Homo sapiens, UniProt P36897)", "effect on": "cell-free assay", "technique": "competition with immobilised ligand", "remaining binding": "100%"}
{"target": "CDC42BPG (Homo sapiens, UniProt Q6DT37)", "technique": "competition binding", "remaining binding": "99%"}
{"target": "GRK1 (Homo sapiens, UniProt Q15835)", "effect on": "cell-free assay", "technique": "competition with immobilised ligand", "remaining binding": "100%"}
{"target": "MAPK8 (Homo sapiens, UniProt P45983)", "effect on": "cell-free assay", "technique": "competition with immobilised ligand", "remaining binding": "91%"}
{"target": "STK32B (Homo sapiens, UniProt Q9NY57)", "effect on": "cell-free assay", "technique": "competition with immobilised ligand", "remaining binding": "88%"}
{"target": "Tyrosine-protein kinase ABL1, non-phosphorylated (ABL1, Homo sapiens, UniProt P00519, F317I)", "effect on": "binding", "technique": "competition with immobilised ligand", "remaining binding": "100%"}
{"target": "PIK3CA (Homo sapiens, UniProt P42336, I800L)", "effect on": "cell-free assay", "technique": "competition with immobilised ligand", "remaining binding": "63%"}
{"target": "PRKCQ (Homo sapiens, UniProt Q04759)", "effect on": "cell-free assay", "technique": "competition with immobilised ligand", "remaining binding": "92%"}
{"target": "NTRK3 (Homo sapiens, UniProt Q16288)", "effect on": "cell-free assay", "technique": "competition with immobilised ligand", "remaining binding": "100%"}
{"target": "PIP4K2C (Homo sapiens, UniProt Q8TBX8)", "effect on": "cell-free assay", "technique": "competition with immobilised ligand", "remaining binding": "100%"}
{"target": "ALK (Homo sapiens, UniProt Q9UM73, L1196M)", "effect on": "cell-free assay", "technique": "competition with immobilised ligand", "remaining binding": "100%"}
{"target": "LRRK2 (Homo sapiens, UniProt Q5S007)", "effect on": "cell-free assay", "technique": "competition with immobilised ligand", "remaining binding": "72%"}
{"target": "IKBKB (Homo sapiens, UniProt O14920)", "effect on": "cell-free assay", "technique": "competition with immobilised ligand", "remaining binding": "100%"}
{"target": "MAP3K20 (Homo sapiens, UniProt Q9NYL2)", "effect on": "cell-free assay", "technique": "competition with immobilised ligand", "remaining binding": "81%"}
{"target": "PRKCE (Homo sapiens, UniProt Q02156)", "effect on": "cell-free assay", "technique": "competition with immobilised ligand", "remaining binding": "93%"}
{"data": "Set 2", "target": "Ephrin type-A receptor 8 (EPHA8, Homo sapiens, UniProt P29322)", "effect on": "enzyme activity", "mode": "inhibitor", "concentration": "0.5 µM", "reference": "control", "UniProt P29322, sequence (whole entry, looked up)": "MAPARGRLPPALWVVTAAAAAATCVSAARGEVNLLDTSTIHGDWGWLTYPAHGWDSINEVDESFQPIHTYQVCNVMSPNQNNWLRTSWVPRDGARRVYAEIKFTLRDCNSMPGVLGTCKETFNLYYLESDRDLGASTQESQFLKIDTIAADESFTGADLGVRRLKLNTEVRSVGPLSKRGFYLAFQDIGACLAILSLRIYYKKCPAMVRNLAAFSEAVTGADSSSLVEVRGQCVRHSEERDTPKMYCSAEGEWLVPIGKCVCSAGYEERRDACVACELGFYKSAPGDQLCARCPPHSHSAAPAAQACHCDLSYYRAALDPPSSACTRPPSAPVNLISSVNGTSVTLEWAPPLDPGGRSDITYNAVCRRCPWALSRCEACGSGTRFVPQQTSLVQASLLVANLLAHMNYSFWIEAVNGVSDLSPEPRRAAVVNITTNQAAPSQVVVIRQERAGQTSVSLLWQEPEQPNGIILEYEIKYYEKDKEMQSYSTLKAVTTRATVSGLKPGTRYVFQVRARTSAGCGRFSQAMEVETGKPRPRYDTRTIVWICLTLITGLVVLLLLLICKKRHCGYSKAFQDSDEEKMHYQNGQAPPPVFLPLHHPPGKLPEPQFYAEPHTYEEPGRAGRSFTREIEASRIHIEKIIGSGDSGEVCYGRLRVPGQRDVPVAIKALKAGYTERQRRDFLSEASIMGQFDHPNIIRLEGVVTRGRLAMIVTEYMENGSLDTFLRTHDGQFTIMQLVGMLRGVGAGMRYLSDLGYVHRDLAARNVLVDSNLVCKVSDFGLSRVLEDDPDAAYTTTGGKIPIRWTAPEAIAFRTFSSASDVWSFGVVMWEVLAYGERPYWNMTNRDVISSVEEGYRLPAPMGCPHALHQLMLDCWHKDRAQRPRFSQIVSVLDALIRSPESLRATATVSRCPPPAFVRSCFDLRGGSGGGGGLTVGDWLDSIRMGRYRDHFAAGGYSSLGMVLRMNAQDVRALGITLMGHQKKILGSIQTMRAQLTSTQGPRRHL"}
{"Structure (SMILES)": "NC(=O)c1ccc(N(C(N)=O)c2c(F)cccc2F)nc1-c1ccc(F)cc1F", "remaining activity": "98.7%"}
{"Structure (SMILES)": "CCCC(=O)Oc1ccc2[nH]c(C(=O)c3cc4ccccc4[nH]3)cc2c1", "remaining activity": "98%"}
{"Structure (SMILES)": "COc1cc(Nc2c(C#N)cnc3cc(OCCCN4CCN(C)CC4)c(OC)cc23)c(Cl)cc1Cl", "remaining activity": "10.5%"}
{"Structure (SMILES)": "N#CC(=C(N)Sc1ccc(N)cc1)c1ccccc1C(F)(F)F", "remaining activity": "94.1%"}
{"Structure (SMILES)": "Oc1ccc(Nc2nc(-c3ccc(Cl)cc3)cs2)cc1", "remaining activity": "93.4%"}
{"Structure (SMILES)": "CC[n+]1c(/C=C/N(C)c2ccccc2)n(-c2ccccc2)c2ccc(-c3nc4ccccc4s3)cc21", "remaining activity": "96.3%"}
{"Structure (SMILES)": "Nc1nccc(-c2c(-c3ccc(F)cc3)ncn2C2CCNCC2)n1", "remaining activity": "101%"}
{"Structure (SMILES)": "Cc1ccc(NC2=CC(=O)c3sc(C)nc3C2=O)cc1", "remaining activity": "94.1%"}
{"Structure (SMILES)": "O=S(=O)(NCCNC/C=C/c1ccc(Br)cc1)c1cccc2cnccc12", "remaining activity": "118%"}
{"Structure (SMILES)": "O=C1NC(=O)C(c2c[nH]c3ccccc23)=C1c1c[nH]c2ccccc12", "remaining activity": "103%"}
{"Structure (SMILES)": "CCc1[nH]c(-c2ccc(OC)cc2)nc1-c1ccncc1", "remaining activity": "93.5%"}
{"Structure (SMILES)": "Cc1cc(Nc2nc(-c3ccccc3)nc3ccccc23)n[nH]1", "remaining activity": "98.2%"}
{"Structure (SMILES)": "Fc1ccc(-c2nc3n(c2-c2ccncc2)CCS3)cc1", "remaining activity": "88.2%"}
{"Structure (SMILES)": "CC(C)(C)n1nc(Cc2cccc3ccccc23)c2c(N)ncnc21", "remaining activity": "66.8%"}
{"Structure (SMILES)": "CC#CC(=O)Nc1cc2c(Nc3ccc(F)c(Cl)c3)ncnc2cn1", "remaining activity": "100%"}
{"Structure (SMILES)": "Nc1nc(Nc2ccc(S(N)(=O)=O)cc2)nn1C(=O)c1c(F)cccc1F", "remaining activity": "109%"}
{"Structure (SMILES)": "Nc1ncnc2c1cnn2-c1ccccc1", "remaining activity": "90.5%"}
{"Structure (SMILES)": "COc1ccc(S(=O)(=O)N(CCO)c2ccccc2CN(C)CC=Cc2ccc(Cl)cc2)cc1", "remaining activity": "100%"}
{"Structure (SMILES)": "Cc1cncc2cccc(S(=O)(=O)N3CCCN(C(=O)CN)C[C@@H]3C)c12", "remaining activity": "95%"}
{"Structure (SMILES)": "CSc1nc(-c2ccnc(N[C@@H](C)c3ccccc3)c2)c(-c2ccc(F)cc2)[nH]1 (racemic)", "remaining activity": "82.2%"}
{"Structure (SMILES)": "CC(=O)c1ccc(N2CCOCC2)cc1O", "remaining activity": "101%"}
{"Structure (SMILES)": "O=C1Cc2c([nH]c3ccc([N+](=O)[O-])cc23)-c2ccccc2N1", "remaining activity": "104%"}
{"data": "Set 3", "cell line": "A-375", "concentration": "100 µM", "time": "18 h"}
{"SMILES": "CCOC(=O)Nc1ccc(NCc2ccc(F)cc2)nc1N", "viability": "104%"}
{"SMILES": "C[C@@H](Oc1cc(-c2cnn(C3CCNCC3)c2)cnc1N)c1c(Cl)ccc(F)c1Cl", "viability": "7.62%"}
{"SMILES": "CCC(=O)O[C@@H](O[P@](=O)(CCCCc1ccccc1)CC(=O)N1C[C@H](C2CCCCC2)C[C@H]1C(=O)O)C(C)C", "viability": "98.4%"}
{"SMILES": "O=C(O)C1=CO[C@@H](O[C@@H]2O[C@H](CO)[C@@H](O)[C@H](O)[C@H]2O)[C@@H]2C(CO)=CC[C@H]12", "viability": "92.6%"}
{"SMILES": "CC1(C)[C@@H](OC(=O)CCC(=O)O)CC[C@]2(C)[C@H]3C(=O)C=C4[C@@H]5C[C@@](C)(C(=O)O)CC[C@]5(C)CC[C@@]4(C)[C@]3(C)CC[C@@H]12", "viability": "83.7%"}
{"SMILES": "CC(=O)O[C@]1(C(C)=O)CC[C@H]2[C@@H]3C=C(Cl)C4=CC(=O)CC[C@]4(C)[C@H]3CC[C@@]21C", "viability": "37.3%"}
{"SMILES": "[H]/N=C(/N)N[C@H]1[C@H](O)[C@@H](O)[C@H](O[C@@H]2O[C@@H](C)[C@](O)(C=O)[C@H]2O[C@@H]2O[C@@H](CO)[C@H](O)[C@@H](O)[C@@H]2NC)[C@@H](N/C(N)=N\\[H])[C@@H]1O", "viability": "120%"}
{"SMILES": "O=C(O)c1cc(-c2ccc(F)cc2F)ccc1O", "viability": "91%"}
{"SMILES": "O=c1ccc2ccc(OCCCCN3CCN(c4cccc5sccc45)CC3)cc2[nH]1", "viability": "12.6%"}
{"SMILES": "COc1cc(C(C)=O)ccc1OCCCN1CCC(c2noc3cc(F)ccc23)CC1", "viability": "50.8%"}
{"SMILES": "Cc1ccc(Nc2nccc(N(C)c3ccc4c(C)n(C)nc4c3)n2)cc1S(N)(=O)=O", "viability": "68%"}
{"SMILES": "CC(C)NCC(O)c1ccc(O)c(O)c1 (stereo not shown)", "viability": "131%"}
{"SMILES": "CCCCC(C)(O)C/C=C/[C@H]1[C@H](O)CC(=O)[C@@H]1CCCCCCC(=O)OC (mixture of isomers)", "viability": "81.5%"}
{"SMILES": "CC(C)Oc1ccc2c(=O)c(-c3ccccc3)coc2c1", "viability": "82.2%"}
{"SMILES": "C[C@@H]1CC(=O)NN=C1c1ccc(NN=C(C#N)C#N)cc1", "viability": "96.1%"}
{"SMILES": "C[N+]1(C)CCCC(OC(=O)C(O)(c2ccccc2)c2ccccc2)C1 (stereo not shown)", "viability": "100%"}
{"SMILES": "CC(C)(F)C[C@H](N[C@@H](c1ccc(-c2ccc(S(C)(=O)=O)cc2)cc1)C(F)(F)F)C(=O)NC1(C#N)CC1", "viability": "91.2%"}
{"SMILES": "C[C@H]1CC[C@@]2(O)C(C)(C)[C@@H]3CC[C@@]2(C)[C@H]1C3", "viability": "23.9%"}
{"SMILES": "OC[C@H]1O[C@@H](n2cnc3c(O)ncnc32)[C@H](O)[C@@H]1O", "viability": "92.2% and 86.1%"}
{"SMILES": "Cc1ccc(NC(=O)c2ccc(CN3CCN(C)CC3)cc2)cc1Nc1nc(-c2cccnc2)cs1", "viability": "12.3%"}
{"SMILES": "COc1ccc2cc(CCC(C)=O)ccc2c1", "viability": "82.2%"}
{"data": "Set 4", "SMILES": "O=C(Nc1cnn(-c2csc(C(=O)NC3COC3)c2)c1)Nc1ccccc1Cl", "effect on": "enzyme activity", "concentration": "5 µM", "reference": "untreated control"}
{"target": "AKT2 (Homo sapiens, UniProt P31751)", "remaining activity": "89.5%"}
{"target": "PTK2 (Homo sapiens, UniProt Q05397)", "remaining activity": "95.1%"}
{"target": "MERTK (Homo sapiens, UniProt Q12866)", "remaining activity": "92.4%"}
{"target": "RIPK3 (Homo sapiens, UniProt Q9Y572)", "remaining activity": "98.1%"}
{"target": "Cyclin-dependent kinase 4, with cyclin D1 (CDK4, Homo sapiens, UniProt P11802)", "remaining activity": "90.6%"}
{"target": "PHKG2 (Homo sapiens, UniProt P15735)", "remaining activity": "98.2%"}
{"target": "BMPR1B (Homo sapiens, UniProt O00238)", "remaining activity": "108%"}
{"target": "CSK (Homo sapiens, UniProt P41240)", "remaining activity": "98.3%"}
{"target": "PDGFRA (Homo sapiens, UniProt P16234)", "remaining activity": "91.7%"}
{"target": "TXK (Homo sapiens, UniProt P42681)", "remaining activity": "87.5%"}
{"target": "MAPK7 (Homo sapiens, UniProt Q13164)", "remaining activity": "110%"}
{"target": "WNK2 (Homo sapiens, UniProt Q9Y3S1)", "remaining activity": "95.6%"}
{"target": "BMPR2 (Homo sapiens, UniProt Q13873)", "remaining activity": "99.6%"}
{"target": "CSNK2A1 (Homo sapiens, UniProt P68400)", "remaining activity": "95.3% and 71.1%"}
{"note": "Repeated from above (set 1):"}
{"target": "MAPK8 (Homo sapiens, UniProt P45983)", "effect on": "cell-free assay", "technique": "competition with immobilised ligand", "remaining binding": "91%"}
{"target": "LRRK2 (Homo sapiens, UniProt Q5S007)", "effect on": "cell-free assay", "technique": "competition with immobilised ligand", "remaining binding": "72%"}
{"target": "GRK1 (Homo sapiens, UniProt Q15835)", "effect on": "cell-free assay", "technique": "competition with immobilised ligand", "remaining binding": "100%"}
{"target": "MAP3K20 (Homo sapiens, UniProt Q9NYL2)", "effect on": "cell-free assay", "technique": "competition with immobilised ligand", "remaining binding": "81%"}
{"target": "PIP4K2C (Homo sapiens, UniProt Q8TBX8)", "effect on": "cell-free assay", "technique": "competition with immobilised ligand", "remaining binding": "100%"}
{"target": "PIK3CA (Homo sapiens, UniProt P42336, I800L)", "effect on": "cell-free assay", "technique": "competition with immobilised ligand", "remaining binding": "63%"}
{"target": "TGFBR1 (Homo sapiens, UniProt P36897)", "effect on": "cell-free assay", "technique": "competition with immobilised ligand", "remaining binding": "100%"}
{"target": "CDC42BPG (Homo sapiens, UniProt Q6DT37)", "technique": "competition binding", "remaining binding": "99%"}
